Measurements collected from several papers.
Lines come from different studies, so protocols differ. ± gives the spread as reported.

SMILES	system	conditions	how to read	tumour growth inhibition
Nc1nnc(-c2ccccc2O)cc1N1CCN(Cc2ccc(OCCOCCNc3cccc4c3C(=O)N(C3CCC(=O)NC3=O)C4=O)c(F)c2)CC1 (stereo not shown)	nude mouse, NCI-H322 xenograft	intraperitoneal, 12.5 mg/kg daily, 25 days		49%
Cc1ncsc1-c1ccc(CNC(=O)[C@@H]2C[C@@H](O)CN2C(=O)[C@@H](NC(=O)CCCCCCCCCC(=O)N2CCN(CC[C@H](NC(=O)C3(N)CCN(c4ncnc5[nH]ccc45)CC3)c3ccc(Cl)cc3)CC2)C(C)(C)C)cc1	nude mouse, PC-3 xenograft	intraperitoneal, 75 mg/kg once daily, 21 days	baseline: vehicle	> 90%
Cc1n[nH]c2ccc3nc(-c4ccc(C(=O)NCCN(C)C)cc4F)c4c(c3c12)CCCC4	MV4-11 xenograft, mouse	oral, 30 mg/kg once daily, 29 days	baseline: vehicle	80.5%
CC1(C)CCC(CN2CCN(c3ccc(C(=O)NS(=O)(=O)c4ccc(NCC5CCOCC5)c([N+](=O)[O-])c4)c(Oc4cnc5[nH]ccc5c4)c3)CC2)=C(c2ccc(Cl)cc2)C1	mouse RS4;11 xenograft	oral, 5 mg/kg once daily, day 14		67%
C[C@]12CC[C@H](n3ccnc3)CC1=CC[C@@H]1[C@@H]2CC[C@]2(C)C(n3cnc4ccccc43)=CC[C@@H]12.Cl	mouse CWR22Rv1 xenograft	oral, 20 mg/kg once daily, 16 days, 5 days per week		140%
C=CCn1c(=O)c2cnc(Nc3ccc(N4CCN(C)CC4)cc3)nc2n1-c1ccc2c(n1)[C@@](O)(CC)CC2	OVCAR-3 xenograft, NOD/SCID mouse	100 mg/kg once daily, :3		102%
CC#CC(=O)N1CCC[C@H]1c1nc(-c2ccc(C(=O)Nc3ccccn3)cc2)c2c(N)nccn12	TMD8 xenograft, mouse	30 mg/kg twice daily		91%
COCc1cc(C(=O)Nc2cc([C@H]3CC[C@@H](OC(=O)NC(C)C)C3)[nH]n2)n(C)n1	OVCAR-3 xenograft, NSG mouse	oral twice daily, highest dose of escalation		85%
C[C@@H]1COCCN1c1cc([C@]2(O)C[C@H]3CC[C@@H](C2)O3)c2cnn(-c3cc[nH]n3)c2n1	SUM149PT xenograft, mouse	30 mg/kg QD x3, day 42		80.4 ± 2.5%
C=CC(=O)Nc1cc(Nc2nccc(Nc3cc(Cl)c(F)cc3C(C)(C)O)n2)c(OC)cc1N1CC[C@@H](N(C)C)C1	NCI-H2073 EGFR SVD knock-in, BALB/c nude mouse, NCI-H2073 xenograft	25 mg/kg twice daily, 21 days		89.1%
CNC(=O)c1ccc(N2C(=S)N(c3ccc(C#N)c(C(F)(F)F)c3)C(=O)C2(C)C)cc1F	mouse CWR22Rv1 xenograft	oral, 25 mg/kg once daily, 16 days, 5 days per week		54.7%
COc1cc(-c2cc(C(C)=O)n3ccccc23)c(OC)cc1Cn1ccnc1	mouse MV4-11 xenograft	oral, 40 mg/kg, 120 h, dosed five days then stopped		60.6%
COc1ccc(F)cc1C(=O)NCc1ccc(-c2nn([C@@H](C)C(F)(F)F)c(N)c2C(N)=O)cc1	TMD8, mouse xenograft	oral, 15 mg/kg twice daily, day 14, 336 h		76%
CCCCC(=O)Nc1ccc(-c2ccc3ncn(CCC)c(=O)c3c2)cn1	mouse HCC827 xenograft	oral, dose not given		> 60%
CC(=O)c1c(C)c2cnc(Nc3ccc(N4CCNCC4)cn3)nc2n(C2CCCC2)c1=O	MCF7, mouse xenograft	oral, 50 mg/kg daily, 32 days, last treatment day		74%
O=C1CC[C@H](N2Cc3cc(N4CCN(CC5CCN(c6ccc([C@@H]7c8ccc(O)cc8CC[C@@H]7c7ccccc7)cc6)CC5)CC4)ccc3C2=O)C(=O)N1	mouse xenograft models	oral, dose not given, monotherapy		≥ 85%
CCCCc1nc2cc(/C=C/C(=O)NO)ccc2n1CCN(CC)CC	mouse, HEL 92.1.7 subcutaneous xenograft	75 mg/kg every other day, day 0 to 17		14%
Cl.O=C(c1cc(Cc2n[nH]c(=O)c3ccccc23)ccc1F)N1CC(CNC2CC2)C1	athymic nude mouse, sample A ovarian PDX	oral, 12.5 mg/kg once daily, 63 days		131%
C=CC(=O)Nc1cc(Nc2nccc(Nc3cc(Cl)c(F)cc3C(C)(C)O)n2)c(OC)cc1N1CC[C@@H](N(C)C)C1	mouse, NCI-H2073 xenograft	oral, 25 mg/kg twice daily, day 14		141%
